Experimental data gathered from unrelated publications.
Lines come from different studies, so protocols differ. Numbers after ± are the reported error.
TRPM8: Transient receptor potential cation channel subfamily M member 8 (TRPM8, Homo sapiens, UniProt Q7Z2W7)
Sequence of UniProt Q7Z2W7 (whole entry, looked up): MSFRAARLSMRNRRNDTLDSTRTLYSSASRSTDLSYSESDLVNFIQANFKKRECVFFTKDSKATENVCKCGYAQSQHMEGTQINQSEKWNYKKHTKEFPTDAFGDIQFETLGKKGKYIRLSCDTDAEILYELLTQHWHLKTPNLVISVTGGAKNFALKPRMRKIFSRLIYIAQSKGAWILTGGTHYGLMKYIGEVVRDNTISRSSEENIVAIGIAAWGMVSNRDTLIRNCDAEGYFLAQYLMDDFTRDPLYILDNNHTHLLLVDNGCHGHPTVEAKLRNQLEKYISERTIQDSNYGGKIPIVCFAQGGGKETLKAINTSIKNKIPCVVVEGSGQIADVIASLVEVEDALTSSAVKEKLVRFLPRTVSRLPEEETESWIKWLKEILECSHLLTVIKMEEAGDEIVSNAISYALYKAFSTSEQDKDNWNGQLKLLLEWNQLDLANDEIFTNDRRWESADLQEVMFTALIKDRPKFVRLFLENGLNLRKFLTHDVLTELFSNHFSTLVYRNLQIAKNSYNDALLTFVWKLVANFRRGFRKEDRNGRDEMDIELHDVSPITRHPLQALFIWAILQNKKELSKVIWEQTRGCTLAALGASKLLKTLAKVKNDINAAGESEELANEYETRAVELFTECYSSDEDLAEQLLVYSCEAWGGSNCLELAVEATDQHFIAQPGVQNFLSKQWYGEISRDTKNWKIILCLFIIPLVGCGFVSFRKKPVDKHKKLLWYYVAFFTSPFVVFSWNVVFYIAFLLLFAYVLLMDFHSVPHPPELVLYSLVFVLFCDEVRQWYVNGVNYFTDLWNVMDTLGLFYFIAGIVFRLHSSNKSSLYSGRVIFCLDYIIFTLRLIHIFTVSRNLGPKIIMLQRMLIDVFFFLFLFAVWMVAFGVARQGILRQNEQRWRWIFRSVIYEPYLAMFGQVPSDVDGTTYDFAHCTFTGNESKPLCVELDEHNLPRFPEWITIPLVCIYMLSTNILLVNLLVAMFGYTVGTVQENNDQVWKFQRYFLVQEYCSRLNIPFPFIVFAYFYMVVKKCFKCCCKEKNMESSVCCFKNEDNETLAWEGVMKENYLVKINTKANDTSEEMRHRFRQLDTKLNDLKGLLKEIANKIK
GRPR: Gastrin-releasing peptide receptor (GRPR, Homo sapiens, UniProt P30550)
Sequence of UniProt P30550 (whole entry, looked up): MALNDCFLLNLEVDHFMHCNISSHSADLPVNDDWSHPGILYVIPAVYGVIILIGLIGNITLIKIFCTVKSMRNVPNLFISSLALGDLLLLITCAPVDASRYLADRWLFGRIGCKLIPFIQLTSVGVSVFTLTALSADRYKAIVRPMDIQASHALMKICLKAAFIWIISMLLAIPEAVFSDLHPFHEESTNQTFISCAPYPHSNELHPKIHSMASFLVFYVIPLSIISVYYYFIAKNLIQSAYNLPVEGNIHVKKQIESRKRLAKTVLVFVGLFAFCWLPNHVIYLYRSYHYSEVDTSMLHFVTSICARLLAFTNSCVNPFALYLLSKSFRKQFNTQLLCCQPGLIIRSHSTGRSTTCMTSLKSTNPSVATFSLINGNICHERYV
SLC6A3: Sodium-dependent dopamine transporter (SLC6A3, Homo sapiens, UniProt Q01959)
Sequence of UniProt Q01959 (whole entry, looked up): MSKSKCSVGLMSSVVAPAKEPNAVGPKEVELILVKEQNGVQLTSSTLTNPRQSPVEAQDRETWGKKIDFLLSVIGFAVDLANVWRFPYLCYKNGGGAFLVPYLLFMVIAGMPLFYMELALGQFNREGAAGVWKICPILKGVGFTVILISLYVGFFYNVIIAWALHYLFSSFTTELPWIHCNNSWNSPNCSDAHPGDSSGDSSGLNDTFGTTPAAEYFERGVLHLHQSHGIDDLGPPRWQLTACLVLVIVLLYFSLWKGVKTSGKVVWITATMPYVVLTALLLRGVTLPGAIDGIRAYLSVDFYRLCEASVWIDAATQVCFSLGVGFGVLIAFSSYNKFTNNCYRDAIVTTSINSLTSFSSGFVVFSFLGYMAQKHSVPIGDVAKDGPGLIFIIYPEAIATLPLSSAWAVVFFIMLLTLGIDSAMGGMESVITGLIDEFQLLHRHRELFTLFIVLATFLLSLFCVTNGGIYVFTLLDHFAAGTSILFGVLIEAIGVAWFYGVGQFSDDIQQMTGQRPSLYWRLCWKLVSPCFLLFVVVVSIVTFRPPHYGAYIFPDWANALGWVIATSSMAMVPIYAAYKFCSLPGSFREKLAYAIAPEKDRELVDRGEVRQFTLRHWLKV
RET: Proto-oncogene tyrosine-protein kinase receptor Ret (RET, Homo sapiens, UniProt P07949)
Sequence of UniProt P07949 (whole entry, looked up): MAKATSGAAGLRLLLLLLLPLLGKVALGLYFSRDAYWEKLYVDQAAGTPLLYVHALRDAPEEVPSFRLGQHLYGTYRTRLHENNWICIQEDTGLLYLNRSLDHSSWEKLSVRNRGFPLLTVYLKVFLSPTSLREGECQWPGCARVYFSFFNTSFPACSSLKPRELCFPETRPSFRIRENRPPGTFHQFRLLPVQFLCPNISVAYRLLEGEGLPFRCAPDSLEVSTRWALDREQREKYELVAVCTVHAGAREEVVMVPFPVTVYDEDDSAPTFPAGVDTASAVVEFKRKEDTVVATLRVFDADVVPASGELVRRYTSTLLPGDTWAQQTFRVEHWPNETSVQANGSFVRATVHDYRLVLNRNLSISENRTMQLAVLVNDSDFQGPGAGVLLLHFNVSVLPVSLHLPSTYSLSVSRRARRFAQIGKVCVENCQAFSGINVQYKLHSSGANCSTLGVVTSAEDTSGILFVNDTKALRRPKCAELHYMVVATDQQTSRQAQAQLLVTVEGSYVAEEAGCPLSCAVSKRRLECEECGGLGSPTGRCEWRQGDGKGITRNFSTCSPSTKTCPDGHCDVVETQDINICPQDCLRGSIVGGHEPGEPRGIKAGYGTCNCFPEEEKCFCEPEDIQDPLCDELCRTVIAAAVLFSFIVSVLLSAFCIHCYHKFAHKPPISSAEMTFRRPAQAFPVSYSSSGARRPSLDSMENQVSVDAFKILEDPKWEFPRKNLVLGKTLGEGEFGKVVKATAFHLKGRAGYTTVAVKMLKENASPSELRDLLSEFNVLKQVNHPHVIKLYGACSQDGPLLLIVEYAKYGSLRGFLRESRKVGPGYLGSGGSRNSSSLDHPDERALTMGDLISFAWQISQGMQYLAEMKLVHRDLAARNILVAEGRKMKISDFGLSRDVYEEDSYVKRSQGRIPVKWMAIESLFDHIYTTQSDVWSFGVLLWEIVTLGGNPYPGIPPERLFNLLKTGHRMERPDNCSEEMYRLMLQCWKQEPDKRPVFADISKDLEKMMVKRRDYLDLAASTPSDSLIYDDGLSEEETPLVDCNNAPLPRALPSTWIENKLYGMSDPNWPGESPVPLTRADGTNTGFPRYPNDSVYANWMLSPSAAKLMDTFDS
CSK: Tyrosine-protein kinase CSK (CSK, Homo sapiens, UniProt P41240)
Sequence of UniProt P00516 (whole entry, looked up): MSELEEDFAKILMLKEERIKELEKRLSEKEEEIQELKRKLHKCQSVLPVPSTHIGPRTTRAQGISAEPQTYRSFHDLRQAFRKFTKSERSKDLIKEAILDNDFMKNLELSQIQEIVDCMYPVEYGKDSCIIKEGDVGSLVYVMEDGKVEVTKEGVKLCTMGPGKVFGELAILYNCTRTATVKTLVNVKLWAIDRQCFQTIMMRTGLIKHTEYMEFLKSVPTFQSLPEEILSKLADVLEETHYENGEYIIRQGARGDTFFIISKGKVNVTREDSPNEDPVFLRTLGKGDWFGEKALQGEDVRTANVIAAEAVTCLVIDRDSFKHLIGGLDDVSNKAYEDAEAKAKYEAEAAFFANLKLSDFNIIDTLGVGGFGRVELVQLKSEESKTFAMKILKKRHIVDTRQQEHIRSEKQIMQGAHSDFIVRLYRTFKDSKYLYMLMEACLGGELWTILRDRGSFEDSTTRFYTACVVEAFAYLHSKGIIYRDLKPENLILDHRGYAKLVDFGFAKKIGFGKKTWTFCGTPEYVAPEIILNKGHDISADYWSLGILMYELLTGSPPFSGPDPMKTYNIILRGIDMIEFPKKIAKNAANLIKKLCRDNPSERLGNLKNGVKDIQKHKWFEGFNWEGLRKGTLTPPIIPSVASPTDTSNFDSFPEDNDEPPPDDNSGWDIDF
Sequence of UniProt B2RXH2 (whole entry, looked up): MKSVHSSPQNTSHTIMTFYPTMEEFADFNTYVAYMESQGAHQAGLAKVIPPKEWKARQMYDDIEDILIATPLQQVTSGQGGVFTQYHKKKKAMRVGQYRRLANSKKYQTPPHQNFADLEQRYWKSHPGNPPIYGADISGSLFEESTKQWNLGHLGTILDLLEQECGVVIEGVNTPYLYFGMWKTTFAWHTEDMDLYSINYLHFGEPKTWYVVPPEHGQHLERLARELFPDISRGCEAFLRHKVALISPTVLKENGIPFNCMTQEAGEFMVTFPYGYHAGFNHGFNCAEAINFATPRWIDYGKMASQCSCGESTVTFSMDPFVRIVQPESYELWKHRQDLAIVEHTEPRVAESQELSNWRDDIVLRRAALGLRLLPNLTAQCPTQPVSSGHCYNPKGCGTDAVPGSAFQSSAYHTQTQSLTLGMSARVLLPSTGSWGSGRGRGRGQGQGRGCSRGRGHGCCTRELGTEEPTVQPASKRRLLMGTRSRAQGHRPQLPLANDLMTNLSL
Sequence of UniProt P19484 (whole entry, looked up): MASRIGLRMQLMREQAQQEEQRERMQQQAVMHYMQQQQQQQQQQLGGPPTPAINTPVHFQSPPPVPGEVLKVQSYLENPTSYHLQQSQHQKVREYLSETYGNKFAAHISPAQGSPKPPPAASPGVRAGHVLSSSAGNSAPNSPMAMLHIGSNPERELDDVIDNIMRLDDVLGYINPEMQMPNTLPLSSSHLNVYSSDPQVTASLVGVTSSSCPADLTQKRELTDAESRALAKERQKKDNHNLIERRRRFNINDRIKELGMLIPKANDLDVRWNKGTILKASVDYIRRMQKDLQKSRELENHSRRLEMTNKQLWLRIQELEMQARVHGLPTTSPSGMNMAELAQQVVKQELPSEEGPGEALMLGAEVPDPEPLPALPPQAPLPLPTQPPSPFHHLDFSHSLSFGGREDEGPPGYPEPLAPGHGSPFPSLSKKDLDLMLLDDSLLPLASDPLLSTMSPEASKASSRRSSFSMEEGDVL
Sequence of UniProt Q13526 (whole entry, looked up): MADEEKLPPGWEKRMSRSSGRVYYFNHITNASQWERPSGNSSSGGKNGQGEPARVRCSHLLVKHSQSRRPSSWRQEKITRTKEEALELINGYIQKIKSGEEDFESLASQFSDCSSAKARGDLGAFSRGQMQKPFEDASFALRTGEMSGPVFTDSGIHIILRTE

CNC(=O)C1CCN(c2ccccc2NC(=O)c2ccc(-c3cc(O)ccc3C)cc2)CC1 — IC50 (Ephrin type-A receptor 5 (EPHA5, Homo sapiens, UniProt P54756); target engagement in cells, BRET): 0.0545 µM
N=C(N)NCCC[C@@H](NC(=O)CCCCCNC(=O)c1ccc(-c2ccnc(N)n2)s1)C(=O)NCCCCCC(=O)N[C@H](CCCNC(=N)N)C(=O)N[C@H](CCCNC(=N)N)C(=O)N[C@H](CCCNC(=N)N)C(=O)N[C@H](CCCNC(=N)N)C(=O)N[C@H](CCCNC(=N)N)C(=O)N[C@H](CCCNC(=N)N)C(=O)N[C@H](CCCCN)C(N)=O — IC50 (cGMP-dependent protein kinase 1, isoform alpha (PRKG1, Bos taurus, UniProt P00516); binding, fluorescence intensity displacement; with: ARC-1059 and cGMP): 0.0891 µM
COc1ccc(S(=O)(=O)NCc2c[nH]nc2-c2cccs2)cc1 — IC50 (skeletal myosin, rabbit; actin-activated ATPase): 1 ± 0.4 µM
NC(=O)[C@@H]1CSc2ccc(cc2)C[C@H](NC(=O)CCc2cccc([N+](=O)[O-])c2)C(=O)N[C@@H](C2CCCCC2)C(=O)NCC2(CCCCC2)CC(=O)N1 — IC50 (Histone acetyltransferase p300 (EP300, Homo sapiens, UniProt Q09472); enzyme activity, inhibitor, radiometric): 3 µM
Cc1cc2c(NC(=O)N[C@@H]3CC(C)(C)Oc4cc(C(F)(F)F)ccc43)c(C)ccc2cn1 — IC50 (TRPM8; cell-based): > 100 µM
CCCOc1cc(C)c(Cl)cc1S(=O)(=O)N(CC)CC — IC50 (Polycystin-2 (Homo sapiens, UniProt Q13563, F604P); ion current, inhibitor, two-electrode voltage clamp; Xenopus oocytes): 16.9 µM
C=CCNC(=O)[C@H](CCc1ccccc1)NC(=O)[C@H](CC(=O)NCC(C)(C)C)NC(=O)CCc1ccccc1 — IC50 (Proteasome component C5/PSMB5 (Homo sapiens, UniProt P20618+P28074); inhibitor): 0.012 µM
C=CC(=O)N1CCc2ccc(-n3c(=O)ccc4cnc5ccc(-c6cnn(C)c6)cc5c43)cc21 — IC50 (Macrophage colony-stimulating factor 1 receptor (CSF1R, Homo sapiens, UniProt P07333); enzyme activity, inhibitor): 1.72 µM
O=C(N[C@@H](Cc1ccccc1)C(=O)N[C@@H](C[C@H]1CCNC1=O)C(=O)C(=O)NC1CC1)OCc1ccccc1 — IC50 (Genome polyprotein, 3C protease (rhinovirus B14, UniProt P03303); 3C protease activity, inhibitor, FRET): 0.085 ± 0.02 µM
CC(C)C[C@@H](CN[C@@H](Cc1ccc(Cl)cc1)C(N)=O)NC(=O)[C@H](Cc1c[nH]cn1)NC(=O)CNC(=O)[C@@H](NC(=O)[C@H](C)NC(=O)[C@H](Cc1c[nH]c2ccccc12)NC(=O)[C@H](CCC(N)=O)NC(=O)[C@H](N)Cc1ccccc1)C(C)C — IC50 (GRPR; binding, radioligand displacement; Balb 3T3 or HuTu-80): 0.0002 to 0.0014 µM
CC1=NN(c2ccc(C)c(C)c2)C(=O)/C1=N\Nc1cccc(-c2cccc(C(=O)NCCOCCOCCNC(=O)CCCC[C@@H]3SC[C@@H]4NC(=O)N[C@@H]43)c2)c1O — IC50 (Transcription factor EB, bHLH-LZ domain (TFEB, Homo sapiens, UniProt P19484); CLEAR DNA binding, fluorescence anisotropy; with: FAM-CLEAR DNA 5 nM): 0.397 µM
C[C@@H]1O[C@@H](OCc2cc(O)c3c(c2)[C@](O)([C@@H]2O[C@H](CO)[C@@H](O)[C@H](O)[C@H]2O)c2cccc(O)c2C3=O)[C@H](O)[C@H](O)[C@H]1O — IC50 (Indoleamine 2,3-dioxygenase 1 (IDO1, Homo sapiens, UniProt P14902); kynurenine formation, inhibitor): 53.9 ± 0.95 µM
NS(=O)(=O)c1ccc(N2N=C(C(F)(F)F)C(O)C2c2ccc(F)cc2F)cc1 (stereo not drawn) — IC50 (Prostaglandin G/H synthase 1 (Canis lupus familiaris, UniProt Q8HZR1); TXB2 formation, inhibitor; clotting dog whole blood; 1 h, 37 °C): > 500 µM
C[C@H](OP(=O)(O)O)[C@H]1NC(=O)[C@@H](CCCNC(=N)N)NC(=O)[C@@H](CCCNC(=N)N)NC(=O)[C@H](CCCNC(=N)N)NC(=O)[C@H](Cc2ccccc2)NC(=O)[C@H](Cc2ccc3ccccc3c2)NC(=O)[C@@H]2CCCCN2C1=O — IC50 (Peptidyl-prolyl cis-trans isomerase NIMA-interacting 1 (PIN1, Homo sapiens, UniProt Q13526); fluorescence anisotropy competition; with: FITC-labelled probe): 1.77 ± 0.28 µM
COc1ccc2cc(C(=O)NCCCN3CCC(Cc4ccccc4)CC3)ccc2c1 — IC50 (SLC6A3; transporter uptake, inhibitor, radiometric): > 10 µM
NS(=O)(=O)c1ccc(NC(=O)NN[C@@H]2O[C@H](CO)[C@@H](O)[C@H](O)[C@H]2O)cc1 — IC50 (Carbonic anhydrase 9 (CA9, Homo sapiens, UniProt Q16790); enzyme activity, inhibitor): 0.051 µM
Cc1cccc(C)c1NC(=O)CC(C)NCc1cccc2ccccc12 (stereo not drawn) — IC50 (Sodium channel protein type 4 subunit alpha (SCN4A, Homo sapiens, UniProt P35499, F1586C); tonic block of sodium current, whole-cell patch clamp; HEK293; 0.1 Hz stimulation): 44 ± 4 µM
COCCCn1nc(I)c2c(N)ncnc21 — IC50 (RET; enzyme activity, inhibitor): 1.9 µM
N#Cc1c(C(F)(F)F)cc(-c2ccc(Cl)cc2)nc1SCC(=O)Nc1ccccc1 — IC50 (Trace amine-associated receptor 1 (TAAR1, Homo sapiens, UniProt Q96RJ0)): > 10 µM
O=C1Nc2cc(Cl)ccc2/C1=C\c1c(Cl)cccc1Cl — IC50 (alpha-amylase; inhibitor; with: starch): 46.7 µM
COc1cncc(-c2cc(F)cc(CNC(=O)c3cc(N4CC[C@@](C#N)(C5CC5)C4=O)cc(C)n3)c2)c1 — IC50 (Proline--tRNA ligase (Plasmodium falciparum, UniProt Q8I5R7); enzyme activity, inhibitor, absorbance): 0.101 µM
CC1CN(c2ncnc3[nH]cnc23)CC(C)O1 (stereo not drawn) — IC50 (Chemotaxis protein CheA (Escherichia coli, UniProt P07363); enzyme activity, inhibitor, radiometric): 709 µM
Cc1nc(Nc2ncc(C(=O)Nc3c(C)cccc3Cl)s2)cc(N2CCN(CCOC(=O)[C@@H](N)CCCNC(=N)N)CC2)n1 — IC50 (CSK; enzyme activity, inhibitor): 0.0044 µM
CSCC[C@H](NC(=O)[C@H](Cc1ccccc1)NC(=O)[C@H](Cc1c[nH]cn1)NC(=O)CNC(=O)[C@@H](NC(=O)[C@H](C)NC(=O)[C@H](Cc1c[nH]c2ccccc12)NC(=O)[C@H](CC(C)C)NC(=O)[C@@H]1CCC(=O)N1)[C@@H](C)O)C(N)=O — IC50 (GRPR; ligand displacement in cells, radioligand): 0.19 µM
CSCC[C@H](NC(=O)[C@H](CC(C)C)NC(=O)[C@H](Cc1c[nH]cn1)NC(=O)CNC(=O)[C@@H](NC(=O)[C@H](C)NC(=O)[C@H](Cc1c[nH]c2ccccc12)NC(=O)[C@H](CCC(N)=O)NC(=O)[C@H](CC(N)=O)NC(=O)[C@H](CC(=O)O)NC(=O)[C@H](CCCNC(=N)N)NC(=O)CNC(=O)CNC(=O)CNC(=O)C(C)F)C(C)C)C(N)=O (stereo partly drawn) — IC50 (GRPR; ligand displacement, radioligand): 0.0559 µM
CC(C)=CCN=C(N)NCCC[C@@H](NC(=O)CCCc1ccc(O)cc1)C(=O)N[C@@H](Cc1ccccc1)C(O)CC(=O)N[C@@H](Cc1ccc(O)cc1)C(=O)O (stereo in doubt) — IC50 (Matrix metalloproteinase-9 (MMP9, Homo sapiens, UniProt P14780); enzyme activity, inhibitor): 65 µM
O=C(NCCCN1CCC(Cc2ccccc2)CC1)c1cc(Cl)cc(Cl)c1 — IC50 (SLC6A3; transporter uptake, inhibitor, radiometric): > 10 µM
Cc1cc(CN(CCCCCCC(=O)NO)Cc2ccc(F)c(C)c2)ccc1F — IC50 (Histone deacetylase 2 (HDAC2, Homo sapiens, UniProt Q92769); enzyme activity, inhibitor, fluorescence): 15 µM
O=C(OC(C(F)(F)F)C(F)(F)F)N1CCC(CCn2ccc3cccnc32)CC1 — IC50 (Monoglyceride lipase (MGLL, Homo sapiens, UniProt Q99685); enzyme activity, inhibitor): 0.35 µM
COc1ccc(NC(=O)CN2c3cccc4cccc(c34)S2(=O)=O)cc1OCc1ccncc1 — IC50 (Voltage-dependent L-type calcium channel subunit alpha-1C (CACNA1C, Homo sapiens, UniProt Q13936); calcium signal, fluorescence): 12.3 µM
N=C(N)NCCCC(N)C(=O)NCC(=O)NC(CCCCNC(=N)NCCCSCC1OC(n2cnc3c(N)ncnc32)C(O)C1O)C(N)=O (stereo not drawn) — IC50 (Histone-lysine N-methyltransferase SETD7 (SETD7, Homo sapiens, UniProt Q8WTS6); enzyme activity, inhibitor, fluorescence): > 100 µM
CC(C)OC(=O)C(CS)N1C(=O)c2ccc(N(C)C)cc2C1=O (stereo not drawn) — IC50 (Metallo-beta-lactamase VIM-2 (VIM-2, Escherichia coli, UniProt Q5U7L7); enzyme activity, inhibitor; pH 7): 0.32 µM
Cc1[nH]c2ccccc2c1CCNC(=O)c1cccs1 — IC50 (act2/arp2 (Schizosaccharomyces pombe, UniProt P32390+Q9UUJ1); actin polymerization, inhibitor, pyrenyl-actin polymerization; with: N-WASp VCA): 24 µM
CC(=O)NCC(=O)N[C@@H](CC(=O)O)C(=O)N[C@@H](Cc1ccc(O)cc1)C(=O)N[C@@H](CO)C(=O)N[C@@H](Cc1cnc[nH]1)C(=O)N[C@H]1CSSC[C@@H](C(=O)N[C@H](C(=O)N[C@@H](Cc2ccc(O)cc2)C(=O)N2CCC[C@H]2C(=O)N[C@@H](CC(=O)O)C(=O)N2CCC[C@H]2C(=O)N[C@@H](CCC(=O)O)C(=O)NCC(=O)NCC(=O)NCC(N)=O)[C@@H](C)O)NC(=O)[C@H](CCCCN)NC(=O)[C@H](Cc2c[nH]c3ccccc23)NC(=O)[C@H](Cc2c[nH]c3ccccc23)NC(=O)[C@@H]2CCCN2C(=O)[C@H](Cc2ccc(O)cc2)NC(=O)[C@H](Cc2ccc(O)cc2)NC(=O)[C@H](CCCNC(=N)N)NC(=O)[C@H](CC(C)C)NC(=O)[C@@H]2CCCN2C(=O)[C@H](CO)NC1=O — IC50 (Angiotensin-converting enzyme 2 (ACE2, Homo sapiens, UniProt Q9BYF1); inhibitor): 0.158 µM
CC(C)C[C@H](NC(=O)CNC(=O)[C@@H](NC(=O)[C@H](Cc1ccc(OP(=O)(O)O)cc1)NC(=O)[C@@H](NC(=O)[C@H](C)NC(=O)[C@H](CC(=O)O)NC(=O)CNC(=O)CNC(=O)CNC(=O)[C@@H](N)CS)C(C)C)[C@@H](C)O)C(=O)N[C@@H](CC(N)=O)C(=O)N[C@H](C(=O)N[C@@H](CCCNC(=N)N)C(=O)N[C@@H](CC(N)=O)C(=O)N[C@@H](CCC(N)=O)C(=O)N[C@@H](CCC(=O)O)C(=O)N[C@H](C(=O)N[C@@H](Cc1ccc(OP(=O)(O)O)cc1)C(=O)N[C@@H](CCC(=O)O)C(=O)N[C@H](C(=O)N[C@@H](CC(C)C)C(=O)N[C@@H](CCCCN)C(=O)NCC(=O)O)[C@@H](C)O)[C@@H](C)O)[C@@H](C)O — IC50 (CSK; binding to immobilized ITAM, competition pull-down, Western blot; DG-75 cell lysate; upper limit of range): < 4 µM
CCCN(CC(=O)N(CCC)CC(=O)N(CCC)CC(=O)N(CCC)CC(=O)N(CC(=O)N(CCC)CC(=O)N(CCC)CC(=O)N(CCC)CC(=O)N(CCC)CC(=O)N(CC(=O)N(CCC)CC(=O)N(CCC)CC(=O)N(CCC)CC(=O)N(CCC)CC(=O)N(CC(N)=O)Cc1cn(CCCNC(=O)CCCOc2cccc(-c3nc4ccc(-c5nc6ccc(N7CCN(C)CC7)cc6[nH]5)cc4[nH]3)c2)nn1)Cc1cn(CCCNC(=O)CCCOc2cccc(-c3nc4ccc(-c5nc6ccc(N7CCN(C)CC7)cc6[nH]5)cc4[nH]3)c2)nn1)Cc1cn(CCCNC(=O)CCCOc2cccc(-c3nc4ccc(-c5nc6ccc(N7CCN(C)CC7)cc6[nH]5)cc4[nH]3)c2)nn1)C(=O)CNCc1cn(CCCNC(=O)CCCOc2cccc(-c3nc4ccc(-c5nc6ccc(N7CCN(C)CC7)cc6[nH]5)cc4[nH]3)c2)nn1 — IC50 (r(CUG)109-MBNL1 complex; binding, inhibitor; with: 1.48 µM yeast tRNA): 0.21 ± 0.085 µM
CC(=O)C12NC(C)(C)CC1(C)C(=O)C1=C2c2c(c3c4n2C(C)(C)CC2=C4C4(CC(C)(C)NC(C)(C4)C2=O)CC3(C)C)C(=O)C(C)(C)N1 (single isomer, unassigned; (+)) — IC50 (TRPM8; ion current, inhibitor, patch clamp): 1.1 µM
C[C@H](NC(=O)c1cc(S(=O)(=O)N2CCOCC2)ccc1N1CCCCC1)c1cc2ccccc2o1 — IC50 (KCNA2/KCNA1 (Homo sapiens, UniProt P16389+Q09470); potassium current, inhibitor, automated patch clamp; CHO-K1, concatemer expressing): 1.62 µM
O=c1c(/C=N/NC(=S)N/N=C/c2ccccn2)coc2ccccc12 — IC50 (Superoxide dismutase [Cu-Zn] (SOD1, Homo sapiens, UniProt P00441); enzyme activity, inhibitor; HeLa; 24 h): 1.46 µM
CN1C[C@@H](c2c[nH]c3cc(Br)ccc23)NC[C@@H]1c1c[nH]c2ccccc12 — IC50 (Serine/threonine-protein phosphatase PP1-alpha catalytic subunit (PPP1CA, Oryctolagus cuniculus, UniProt P62139); enzyme activity, inhibitor, fluorescence): ~10 µM
Cc1ccc2oc(-c3c4c(N)n[nH]c(=O)c4nn3-c3ccc(NC(=O)/C=C/CN(C)C)cc3)c(C)c2c1 — IC50 (RET; enzyme activity, inhibitor, ELISA): > 1 µM
O=C(O)C(=O)N[C@H](CS)C(=O)O — IC50 (Lysine-specific demethylase 4E (KDM4E, Homo sapiens, UniProt B2RXH2); enzyme activity, inhibitor): 73 µM
